Measured values pooled from the literature.
Parts stem from different laboratories: compare values within a part only.

Set 1 — technique: RNA Bind-n-Seq; form: RNA; matrix: in vitro; concentration: 365 nM; baseline: no-protein control; reading: higher = stronger binding
Target: RNA binding protein fox-1 homolog 2, RRM domain, GST-SBP tag (RBFOX2, Homo sapiens, UniProt O43251-10, residues 100-194)
Notes: natural RNA segment, single round, ends assumed
Construct (chain): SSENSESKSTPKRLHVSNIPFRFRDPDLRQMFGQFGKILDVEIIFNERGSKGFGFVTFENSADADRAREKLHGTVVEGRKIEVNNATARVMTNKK
Under “RBNS enrichment (R)”, `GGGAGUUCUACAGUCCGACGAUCUUUGUAAAAAUAACUGUAGCUUAUAUUCUUUAUUUGUGCAUACCAAUGUGAAAAUCCACUCUUUUAUUAUGUUGAGAUUAUCUUCUGAUCAGGAAGUUUGAGUGCUAUGCUGGAAUUCUCGGGUGCCAA` is recorded as 0.741.
For `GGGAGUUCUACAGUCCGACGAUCGCAGGCCUUCUUCUUCCGGAGUUGGUGAUUCUAACUUUAGAAGUUCCAGGUUGUGGGCUAUGGUAUUUGGGAUCCUGCAAAAGCACAUACACGUUUGUUCUAUGUUGUAAUGGAAUUCUCGGGUGCCAA`, “RBNS enrichment (R)” read 0.264.
Under “RBNS enrichment (R)”, `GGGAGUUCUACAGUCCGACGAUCACAAAGCCUGGGGUACCCGCAUCUGGUUUGGAACCCUGAGUUUUGUUGUUCAGUCAGCAGCCCUAGUCAUGGUUGCCAAUAGUUUUCCCAAGCAAGGCGUCACCGAGGAGUGGAAUUCUCGGGUGCCAA` is recorded as 0.244.
`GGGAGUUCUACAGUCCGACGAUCCUGGGUCCAAAGUGAUUUACAUAAAUUUAUAAUGAAAAUAAACAUGUAUAAAAUUUAAAAAAACAGACUCCCAUUUCUUAAAAACGGAUAAGUUUGAAAGGAAACUGCUAUGGAAUUCUCGGGUGCCAA`: “RBNS enrichment (R)” 0.468.
`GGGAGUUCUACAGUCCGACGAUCAGGCAGCCUAGCCUAUGUCUGGCAGAUGAGGGCUGGCUGCCGUUUUCUGGGCUGAUGGGUGCCCUUUCCUGGCAGUCUCAGUCCAAAAGUGUUGACUGUGUCAUUAGUCCUGGAAUUCUCGGGUGCCAA`: “RBNS enrichment (R)” 0.261.
Under “RBNS enrichment (R)”, `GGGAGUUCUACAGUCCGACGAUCUUCUUUUUUUCAACUCUCCAUCAAAUGUGCCUUAAAGUUAAGCAUUUUGACCCAAGUGUUUUAACUUAGUCCAGAAUAGUUUCCUUUGUCUUUUGUAACUUUACAGAGGAUGGAAUUCUCGGGUGCCAA` is recorded as 0.568.
Under “RBNS enrichment (R)”, `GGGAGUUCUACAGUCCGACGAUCAGACCUGAAUGCUCUAUUUGCCCAAUGCUUCCAGACUCUUAGCUGUUCUGCCCAGCCCCCGUCCCGCUCCCACCUAAAGCCUGAGUUGGCUGAGCCAAAUGCCCAGCACUUGGAAUUCUCGGGUGCCAA` is recorded as 0.556.
Under “RBNS enrichment (R)”, `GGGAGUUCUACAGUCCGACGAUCACAAAUUAACUUGAAUUUCUAUGUAAGGUGGUGGGGGGGGGAACUCUAAUAAACAUGAACUAGAGGGAACUUCCAGCGUGUCCUUUCUGUGUGCUAAUGUCUAUCUGGUAUGGAAUUCUCGGGUGCCAA` is recorded as 0.632.
`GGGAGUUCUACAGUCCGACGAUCUGUGUAUGAGAUCCUAUAUACCAGCAUGUACCAAGAAUGUGUGUGUAGUUUUAAUUAUGCUGCAAUGUAUAAUCUGGUGUGUUAUUUAAACAGCACUAGUACUGUACACUUGGAAUUCUCGGGUGCCAA` — result for “RBNS enrichment (R)”: 6.94.
Under “RBNS enrichment (R)”, `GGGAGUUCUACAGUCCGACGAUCAAGAUUGUCCUGUGACUUCUGCCCAUUACCUGAGGCCUGUGGAAAUAAACCUUUAUGUACUUAAAAUUAUACAGAAAAUAGAAUAAAGUUAAUACCAAACUUGUUUAGUUUGGAAUUCUCGGGUGCCAA` is recorded as 0.538.
`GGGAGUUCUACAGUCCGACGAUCGAUGGGCCCUAUACCUCCAGCCGUGAAUGCCAGACUUUAGAUUGCCCGGAGGAAGCAAACUCUUCGUAUAAAAAAAGCAGGCCAUCUGCUUAACCCUUGGCUCCACCAUAUGGAAUUCUCGGGUGCCAA` — result for “RBNS enrichment (R)”: 0.747.
For `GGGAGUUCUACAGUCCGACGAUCUCUUUGGGCAGAGGUUUGAUUUUUGGCAUUUGUACAAGCCGCACGGGCAAAGGGGGAAAAGAAUGCCGUAGGGGACCACACCUAAGGGACCAAAAGAUACCCACUGUCACUGGAAUUCUCGGGUGCCAA`, “RBNS enrichment (R)” read 1.38.

Set 2 — technique: protein binding microarray; form: double-stranded DNA, one strand shown; matrix: in vitro; concentration: not given; baseline: not given; reading: higher = stronger binding
Target: Histone acetyltransferase KAT6A, both winged helices, GST fusion (KAT6A, Homo sapiens, UniProt Q92794, residues 1-181)
Notes: 8-mer, flanks averaged, mean of 2 arrays, mostly near background
Construct (chain): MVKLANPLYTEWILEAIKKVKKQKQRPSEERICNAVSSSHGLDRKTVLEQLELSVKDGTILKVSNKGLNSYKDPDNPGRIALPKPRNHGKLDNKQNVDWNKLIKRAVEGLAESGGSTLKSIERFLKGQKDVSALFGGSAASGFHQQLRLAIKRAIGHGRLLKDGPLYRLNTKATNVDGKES
With `ACAGTAGG` the E-score was -0.153.
For `CTCCTGCA`, the E-score was -0.132.
The E-score of `GCGACTCC` is reported as 0.0686.
The E-score of `AAATCAGT` is reported as 0.0388.
`TATCAGCA` gave an E-score of -0.126.
The E-score of `ATAAGAAA` is reported as -0.109.
`CCGGGAAA` has an E-score of 0.18.
For `GATACGAA`, the E-score was 0.0107.
With `GGCTTGAA` the E-score was 0.011.
`CCCAAAGC` has an E-score of -0.0765.
`ACGTGCCA` has an E-score of -0.143.
With `CGCTCTCC` the E-score was 0.0516.
For `AATAGTGC`, the E-score was 0.157.
`GAATTCAC` gave an E-score of -0.0199.
For `CTGACGAA`, the E-score was -0.027.
With `CTCATCCC` the E-score was -0.109.
The E-score of `ACTATACA` is reported as -0.11.
`CAACCGGA` has an E-score of 0.136.
`AAGGCTAC` gave an E-score of -0.18.
The E-score of `AAGTGCAA` is reported as -0.182.
`ACGACCAC` gave an E-score of -0.182.

Set 3 — technique: RNAcompete; form: RNA; matrix: in vitro; concentration: 20 nM; notes: 7-mer, probes averaged, single round; baseline: mean of 7-mers; reading: higher = stronger binding
Target: PABPC1L2, full length, GST fusion (mouse, UniProt A0ABA7IW68)
Target sequence (chain): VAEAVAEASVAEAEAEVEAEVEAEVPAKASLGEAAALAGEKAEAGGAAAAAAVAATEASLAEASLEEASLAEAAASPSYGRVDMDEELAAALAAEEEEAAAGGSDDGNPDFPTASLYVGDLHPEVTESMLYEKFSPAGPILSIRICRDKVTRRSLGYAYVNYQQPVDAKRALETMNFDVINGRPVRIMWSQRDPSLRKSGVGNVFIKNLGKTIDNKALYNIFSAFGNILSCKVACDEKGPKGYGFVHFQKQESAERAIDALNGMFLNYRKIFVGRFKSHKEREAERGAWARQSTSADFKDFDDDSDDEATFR
The 7-mer Z-score of `GAGCCCG` is reported as -0.208.
`AUACGGU` gave a 7-mer Z-score of -0.195.
`GCCAGUU` has a 7-mer Z-score of -0.295.
`CCCUCAU` has a 7-mer Z-score of -0.362.
The 7-mer Z-score of `GCUGAGU` is reported as -0.17.
With `GAAUAUG` the 7-mer Z-score was -0.0373.
`UAAAAGU` has a 7-mer Z-score of 2.36.
With `CGGCUGG` the 7-mer Z-score was -0.13.
`UACGUUA` gave a 7-mer Z-score of -0.19.
`AUGGCGC` gave a 7-mer Z-score of -0.0264.
The 7-mer Z-score of `UCUUACA` is reported as -0.224.
For `UCGGUGC`, the 7-mer Z-score was -0.115.
The 7-mer Z-score of `GCACCCA` is reported as -0.108.
`CGAUACG` gave a 7-mer Z-score of -0.108.
For `ACCAGUC`, the 7-mer Z-score was -0.208.
The 7-mer Z-score of `UAAUGUA` is reported as -0.13.
`GAUUAGA` gave a 7-mer Z-score of -0.112.
`GGGAUCA` gave a 7-mer Z-score of 0.234.
`GCCGAUC` has a 7-mer Z-score of -0.166.
For `CAUUAUA`, the 7-mer Z-score was -0.0156.
`AGCAUUG` has a 7-mer Z-score of 0.0297.
`UUUAGUG` has a 7-mer Z-score of 0.0352.
`CCCGAAG` gave a 7-mer Z-score of -0.171.
For `UCCCCCA`, the 7-mer Z-score was -0.431.
`GAGAGCU` has a 7-mer Z-score of -0.103.

Set 4 — technique: RNA Bind-n-Seq; form: RNA; matrix: in vitro; concentration: 200 nM; notes: whole 134-nt RNA, ends assumed; together with: 150 mM LiCl; baseline: input library; reading: higher = stronger binding; library: 7-deaza-guanosine replaces G
Target: Ras GTPase-activating protein-binding protein 1, full length (G3BP1, Homo sapiens, UniProt Q13283)
UniProt Q13283, sequence (whole entry, looked up): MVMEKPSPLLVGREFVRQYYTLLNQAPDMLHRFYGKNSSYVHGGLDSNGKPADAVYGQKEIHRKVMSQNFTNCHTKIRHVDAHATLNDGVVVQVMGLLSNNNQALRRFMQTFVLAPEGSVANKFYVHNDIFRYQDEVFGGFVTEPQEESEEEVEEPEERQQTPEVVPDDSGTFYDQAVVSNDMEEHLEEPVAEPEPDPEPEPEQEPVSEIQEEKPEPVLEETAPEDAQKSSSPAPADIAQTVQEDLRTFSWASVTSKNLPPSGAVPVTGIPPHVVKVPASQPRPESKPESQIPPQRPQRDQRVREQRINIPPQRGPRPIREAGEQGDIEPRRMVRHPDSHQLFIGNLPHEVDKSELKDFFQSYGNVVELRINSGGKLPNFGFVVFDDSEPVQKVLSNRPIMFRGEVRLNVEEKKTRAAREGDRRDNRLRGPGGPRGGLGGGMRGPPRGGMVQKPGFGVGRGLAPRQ
`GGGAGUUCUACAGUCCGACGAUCCCUGUGCUACACAUCGUAUGUACCGAAUCGGGGUUUUUGGGGAAAGGGGAAAAAAAGGGGAAAGUAUUAUGUUACGCCGUUCGGAUCUGCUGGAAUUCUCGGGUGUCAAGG` gave a log2 enrichment of 0.584.
For `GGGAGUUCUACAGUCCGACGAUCGCAGGAAGUAAAAACAAAUGGGAAUGCUUCGGAUAGUGGCAGGGGUGGGGGUUGCUAAGGAAAGGGUGGGAUGGGAGUGGGUAAAGAGUUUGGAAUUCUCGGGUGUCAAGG`, the log2 enrichment was 0.17.
With `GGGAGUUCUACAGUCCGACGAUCCUGUGCUACACAUCGUAUGUACCGAAUCGGGUUUUUUUGGGAAAAAAAGGGUUUUUUUGGGAAAGUAUUAUGUUACGCCGUUCGGAUCUGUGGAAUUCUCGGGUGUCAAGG` the log2 enrichment was -2.4.
The log2 enrichment of `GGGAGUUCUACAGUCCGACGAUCCCUCAAGUCCUGUGCUACACAUCGUAUGUACCGAAUCGGGGUGGGGUGGGUGGAAAGUAUUAUGUUACGCCGUUCGGAUCUGCACUUCCAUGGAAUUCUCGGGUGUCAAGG` is reported as -0.269.
`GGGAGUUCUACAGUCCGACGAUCGUCCUGUGCUACACAUCGUAUGUACCGAAUCGGGGCCCCGGGCCCCGGGGCCCCGGGGAAAGUAUUAUGUUACGCCGUUCGGAUCUGCACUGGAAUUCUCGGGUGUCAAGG` gave a log2 enrichment of -0.0667.
`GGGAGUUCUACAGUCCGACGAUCCCUCAAGUCCUGUGCUACACAUCGUAUGUACCGAAUCGGAAAGGAAAGGUGGAAAGUAUUAUGUUACGCCGUUCGGAUCUGCACUUCCAGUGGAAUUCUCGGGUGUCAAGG` has a log2 enrichment of -0.413.
`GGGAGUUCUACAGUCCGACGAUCGCAGGAAGUAAAAACAAAUGGAAAUGCUUCGGAUAGUGGCAGGGGUGGGGGUUGCUAAGGCAAGGGUGGGAUGGGAGUGGGUAAAGAGUUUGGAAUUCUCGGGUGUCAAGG` has a log2 enrichment of 0.153.
The log2 enrichment of `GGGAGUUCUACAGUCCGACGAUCUCCAGCCACUCACCGGCGAUCCAGGUCCAGAACCCCCCUGAUAAGCCGACGUAGGUCCAGAUCUCGAACUUCACCAGUCAGCCGGAGACGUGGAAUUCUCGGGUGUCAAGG` is reported as 0.14.
For `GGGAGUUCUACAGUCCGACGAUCUGGGAGGUGGAUUUUGUUUAUUUUUUUAGCUCAUUUCCAGGGGUGGGAAUUUUUUUUUAAUAUGUGUCAUGAAUAAAGAUGUUUUUGAAAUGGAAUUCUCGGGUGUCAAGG`, the log2 enrichment was -0.609.
`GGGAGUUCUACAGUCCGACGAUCCUCCUGGAGUGGAUCCGGCGCACCAUCCCCUGGCUGGAGGACCGUGUGCCCCAAAAGACUAUCCAGGAGAUGCAGCAGAAGCUGGAGGACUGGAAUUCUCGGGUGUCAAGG` has a log2 enrichment of -2.69.
For `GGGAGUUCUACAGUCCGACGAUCUAAGUUUAGAGGAGGAUCUGAUGGAUAUGGCAGUGGACGUGGAUUUGGGGAUGGCUAUAAUGGGUAUGGAGGAGGACCUGGAGGUGGCAAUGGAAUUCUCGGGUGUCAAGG`, the log2 enrichment was -0.29.

Excerpt of the above (set 2):
`CCGGGAAA` has an E-score of 0.18.
For `GATACGAA`, the E-score was 0.0107.
With `GGCTTGAA` the E-score was 0.011.
`CCCAAAGC` has an E-score of -0.0765.
`ACGTGCCA` has an E-score of -0.143.
With `CGCTCTCC` the E-score was 0.0516.
For `AATAGTGC`, the E-score was 0.157.
`GAATTCAC` gave an E-score of -0.0199.
For `CTGACGAA`, the E-score was -0.027.
